# Measured values from different studies.
# Each numbered part is a random draw from the data of one study; scales do not carry over between parts.

# Sample 1 — method: protein-binding microarray; form: double-stranded DNA, one strand shown; sample: in vitro; concentration: 2200 nM top; setting: 60-bp whole probe; with: salmon DNA 0.4 mg/ml; relative to: random background probes; direction: higher = stronger binding; shared flanks, not repeated: GCCTAGCAC … GTCTTGATTCGCTTGACGCTGCTG
# Target: Interferon regulatory factor 7, full length, phosphomimetic (IRF7, Homo sapiens, UniProt Q92985, residues 1-503, S471D/S472D/S475D/S476D/S477D/S483D/S484D/S487D)
# UniProt Q92985, sequence (whole entry, unmodified, looked up): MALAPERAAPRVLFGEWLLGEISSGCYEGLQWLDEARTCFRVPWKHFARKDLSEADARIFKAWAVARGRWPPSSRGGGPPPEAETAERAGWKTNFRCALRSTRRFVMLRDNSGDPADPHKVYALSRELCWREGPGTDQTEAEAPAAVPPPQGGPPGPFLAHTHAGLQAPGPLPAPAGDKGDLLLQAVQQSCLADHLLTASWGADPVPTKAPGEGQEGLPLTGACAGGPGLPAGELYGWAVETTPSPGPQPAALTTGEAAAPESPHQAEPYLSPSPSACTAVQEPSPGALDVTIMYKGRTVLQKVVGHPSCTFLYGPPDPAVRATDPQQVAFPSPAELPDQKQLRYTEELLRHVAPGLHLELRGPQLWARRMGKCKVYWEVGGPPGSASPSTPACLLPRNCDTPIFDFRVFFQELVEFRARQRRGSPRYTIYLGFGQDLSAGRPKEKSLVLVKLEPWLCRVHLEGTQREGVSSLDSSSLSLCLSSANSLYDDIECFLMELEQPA
Sequence,fitted relative affinity [z-score]
GACGGTTTGCTTCTCCTGACGTGCTAG,1.75
TCAGATTTCAATTAGAAACTGTGCTAG,0.178
TTCTAATTTACTTTGGTTGGGTGCTAG,0.561
GACGATGTCGGGTATCGAGACGTGCTA,-0.392
GACGGTTTCCTTTTCCTGCCGTGCTAG,5.24

# Sample 2 — method: RNA Bind-n-Seq; form: RNA; sample: in vitro; concentration: 1 µM; setting: whole 134-nt RNA, ends assumed; with: 150 mM KCl; relative to: input library; direction: higher = stronger binding
# Target: Ras GTPase-activating protein-binding protein 1, RRM domain (G3BP1, Homo sapiens, UniProt Q13283)
# UniProt Q13283, sequence (whole entry, looked up): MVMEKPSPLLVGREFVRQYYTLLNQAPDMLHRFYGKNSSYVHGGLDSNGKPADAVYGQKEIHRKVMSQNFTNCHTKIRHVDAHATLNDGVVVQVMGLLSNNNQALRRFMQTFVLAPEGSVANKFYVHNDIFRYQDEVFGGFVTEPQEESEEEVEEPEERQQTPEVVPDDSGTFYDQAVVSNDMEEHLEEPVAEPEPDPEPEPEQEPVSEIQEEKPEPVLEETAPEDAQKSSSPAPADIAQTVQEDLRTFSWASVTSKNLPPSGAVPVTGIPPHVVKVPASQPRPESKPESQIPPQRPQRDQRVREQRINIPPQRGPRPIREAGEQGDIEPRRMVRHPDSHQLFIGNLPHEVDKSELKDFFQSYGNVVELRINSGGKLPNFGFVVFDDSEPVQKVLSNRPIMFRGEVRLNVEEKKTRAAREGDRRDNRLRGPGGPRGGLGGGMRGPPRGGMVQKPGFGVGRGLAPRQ
Sequence,log2 enrichment
GGGAGUUCUACAGUCCGACGAUCAGUCCUGUGCUACACAUCGUAUGUACCGAAUCGGGUUUUUGGGAAAAAAAGGGUGGGAAAGUAUUAUGUUACGCCGUUCGGAUCUGCACUUGGAAUUCUCGGGUGUCAAGG,0.44
GGGAGUUCUACAGUCCGACGAUCCACAGACAACACGCACCCACACAGACACAGAGGGAAGGGGUUGGGAUGGGGACAGGGUGCACAGCAGGGCGGGGUAGGACGCCAGCCCCUUGGAAUUCUCGGGUGUCAAGG,-0.316
GGGAGUUCUACAGUCCGACGAUCAAGUCCUGUGCUACACAUCGUAUGUACCGAAUCGGAAAAAGGAAAAAAAGGUUUGGAAAGUAUUAUGUUACGCCGUUCGGAUCUGCACUUUGGAAUUCUCGGGUGUCAAGG,-0.195
GGGAGUUCUACAGUCCGACGAUCCACAGACAACAAGCACCCACACAGACACAGAGGGAAGGGGUUGGGAUGGGGACAGGGUGCACAGCAGGGCGGGGUAGGACCCCAGCCCCUUGGAAUUCUCGGGUGUCAAGG,0.141

# Sample 3 — method: universal PBM; form: double-stranded DNA, one strand shown; sample: in vitro; concentration: 600 nM; direction: higher = stronger binding
# Target: Sal-like protein 4, full length isoform A (SALL4, Homo sapiens, UniProt Q9UJQ4, residues 1-1053)
# UniProt Q9UJQ4, sequence (whole entry, looked up): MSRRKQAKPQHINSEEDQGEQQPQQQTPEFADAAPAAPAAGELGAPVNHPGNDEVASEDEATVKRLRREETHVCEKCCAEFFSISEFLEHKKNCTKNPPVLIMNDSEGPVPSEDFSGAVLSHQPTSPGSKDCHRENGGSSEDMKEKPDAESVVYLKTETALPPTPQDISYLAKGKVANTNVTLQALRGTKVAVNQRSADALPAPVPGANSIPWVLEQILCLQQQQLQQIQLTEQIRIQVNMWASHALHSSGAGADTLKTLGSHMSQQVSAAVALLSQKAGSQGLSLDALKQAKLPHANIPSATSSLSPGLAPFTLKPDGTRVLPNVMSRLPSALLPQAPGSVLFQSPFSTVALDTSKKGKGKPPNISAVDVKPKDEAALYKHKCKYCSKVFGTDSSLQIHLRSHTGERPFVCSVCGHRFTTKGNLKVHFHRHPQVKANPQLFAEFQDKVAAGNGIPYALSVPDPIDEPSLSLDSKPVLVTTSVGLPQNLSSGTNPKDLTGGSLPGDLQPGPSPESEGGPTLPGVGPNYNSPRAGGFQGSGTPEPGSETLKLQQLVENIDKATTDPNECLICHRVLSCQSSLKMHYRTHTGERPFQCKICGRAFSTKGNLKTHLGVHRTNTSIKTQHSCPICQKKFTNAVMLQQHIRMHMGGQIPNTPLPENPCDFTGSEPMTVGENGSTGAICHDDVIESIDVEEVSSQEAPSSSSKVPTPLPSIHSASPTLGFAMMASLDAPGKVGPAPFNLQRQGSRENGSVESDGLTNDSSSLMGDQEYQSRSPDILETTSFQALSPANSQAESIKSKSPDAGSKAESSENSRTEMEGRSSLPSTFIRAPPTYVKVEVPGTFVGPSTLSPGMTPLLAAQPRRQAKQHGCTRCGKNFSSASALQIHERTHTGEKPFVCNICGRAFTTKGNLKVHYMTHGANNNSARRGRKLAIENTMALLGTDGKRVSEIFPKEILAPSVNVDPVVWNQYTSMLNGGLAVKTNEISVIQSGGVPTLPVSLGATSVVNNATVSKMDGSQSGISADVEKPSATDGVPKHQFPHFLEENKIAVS
# Setting: 8-mer, flanks averaged, mean of replicates
Sequence,E-score
CATTGCCA,0.0677
CGACTCAC,-0.104
CCGTCAAA,0.00232
AAGCGCGA,-0.141
TATCACAA,0.251
GGTGACCA,-0.255

# Further values, each from its own experiment
Molecule,target,assay,system,setting,how to read,endpoint,result
"PhoQ, residues 284 288 289 292 302 303 GASLAW","PhoP, residues 12 14 15 18 19 HLGGL (Escherichia coli, UniProt P23836)","Sort-seq, measured: YFP reporter",E. coli,"PhoQ-PhoP variant library, with: 10 µM Mg2+","relative to: high Mg2+ state, higher = stronger signaling",fold induction,0.85
